Results gathered from unrelated publications.
A part holds a random share of what one study measured.

Sample 1
Target: Interferon regulatory factor 7, full length, phosphomimetic (IRF7, Homo sapiens, UniProt Q92985, residues 1-503, S471D/S472D/S475D/S476D/S477D/S483D/S484D/S487D)
Chain of UniProt Q92985 (whole entry, unmodified, looked up): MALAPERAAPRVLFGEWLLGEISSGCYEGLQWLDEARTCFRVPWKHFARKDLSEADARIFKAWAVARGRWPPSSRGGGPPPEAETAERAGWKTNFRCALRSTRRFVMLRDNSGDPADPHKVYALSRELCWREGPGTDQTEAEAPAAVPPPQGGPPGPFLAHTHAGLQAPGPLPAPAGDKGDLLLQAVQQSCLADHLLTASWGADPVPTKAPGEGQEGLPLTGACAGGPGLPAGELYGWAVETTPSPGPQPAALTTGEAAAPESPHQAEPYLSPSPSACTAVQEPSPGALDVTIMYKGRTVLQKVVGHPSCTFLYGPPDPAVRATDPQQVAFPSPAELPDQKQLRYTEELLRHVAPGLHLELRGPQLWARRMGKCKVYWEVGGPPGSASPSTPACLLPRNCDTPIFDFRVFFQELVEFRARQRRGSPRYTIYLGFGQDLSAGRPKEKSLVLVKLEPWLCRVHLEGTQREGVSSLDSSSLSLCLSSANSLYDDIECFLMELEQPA
Method: protein-binding microarray
Form: double-stranded DNA, one strand shown
Sample: in vitro
Tested at: 2200 nM top
Setting: 60-bp whole probe
Added: salmon DNA 0.4 mg/ml
Relative to: random background probes
Reading: higher = stronger binding
Constant ends, left off below: GCCTAGCAC … GTCTTGATTCGCTTGACGCTGCTG
| Oligonucleotide | fitted relative affinity [z-score] |
| --- | --- |
| CTGGTGCTCATCTGTCATGTTGTGCTA | 0.764 |
| TTAGGTCTCGGGCTCGGTTAGTGCTAG | -0.142 |
| TTAGCTATCAGTTTCGATTAGTGCTAG | 5.62 |
| TTAGGTATCCTTTTCCCTTAGTGCTAG | 1.83 |
| TTAGAACTGGGGTCTCGATTAGTGCTA | 0.0176 |
| TTCTACTTCTCTTTTTGCTTGTGCTAG | 2.65 |
| TTAGATATCGGGTTCCGATTAGTGCTA | 0.498 |
| GACGGACTGGGTCTCGTGACGTGCTAG | -0.722 |
| TTAGGTATCGGTATCCGTTAGTGCTAG | 1.22 |
| GACGATTTCGGGGATCGAGACGTGCTA | 1.17 |
| TTAGCTTTCAGTTTCGATTAGTGCTAG | 9.56 |
| TCAGGTTTTCTAATGTTACTGTGCTAG | 1.01 |
| TTAGGACTGGGTACTGGGTTAGTGCTA | -0.947 |
| GACGATTTCAGACTGGACACGTGCTAG | 0.583 |
| GCCGATTTCAGTTCCGAGACGTGCTAG | 2.53 |
| TTAGGTTTCGATTATCGGTTAGTGCTA | 5.07 |
| GACGATTTCAGTCTCGAGATGTGCTAG | 0.957 |
| TTCGGTATCGGTATCGGTTAGTGCTAG | 1.69 |
| TTAGGACAGCTTCTCCTTTAGTGCTAG | 0.324 |
| TCAATATCCATTATAGAACTGTGCTAG | 0.649 |
| TTAGGTCTCCTACCGCTTTAGTGCTAG | 0.537 |
| GACGATATCAGGACTGGAGACGTGCTA | -0.184 |
| GGATGTGTCTTAAATAGGGGAGTGCTA | -0.316 |

Sample 2
Target: Histone acetyltransferase KAT6A, winged helix 1, GST fusion (KAT6A, Homo sapiens, UniProt Q92794, residues 1-85)
Method: protein binding microarray
Form: double-stranded DNA, one strand shown
Sample: in vitro
Tested at: not given
Setting: 8-mer, flanks averaged, mean of 2 arrays, mostly near background
Relative to: not given
Reading: higher = stronger binding
Construct (chain): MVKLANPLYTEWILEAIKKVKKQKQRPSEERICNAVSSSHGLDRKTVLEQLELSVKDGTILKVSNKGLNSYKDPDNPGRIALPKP
| Oligonucleotide | E-score |
| --- | --- |
| CTTAGTCA | 0.00127 |
| AGTGGTCC | -0.0788 |
| CATGCCGC | 0.397 |
| ACGTGAGA | -0.194 |
| GCTCTGTA | -0.0521 |
| GTATCGGA | 0.229 |
| ACCGAAGA | -0.259 |
| CGAGATGA | -0.0528 |
| GAGCCGCA | 0.268 |
| CTAGTCCC | -0.0638 |
| CTACTGAG | -0.148 |
| AGTTCAGG | -0.159 |
| CGGGGTAA | 0.129 |
| GCTTAAAC | 0.075 |
| CCCTCGTA | 0.108 |
| GCGGCTCC | 0.377 |
| GCGTAGCC | 0.133 |
| ACTGGGGA | -0.2 |
| AAACTTGA | -0.173 |
| GGGGACCA | -0.0585 |
| AGGATCGC | 0.0966 |

Sample 3
Target: Centromere-binding protein 1, full length, His-tagged (CBF1, Saccharomyces cerevisiae, UniProt P17106, residues 1-351)
Chain of UniProt P17106 (whole entry, looked up): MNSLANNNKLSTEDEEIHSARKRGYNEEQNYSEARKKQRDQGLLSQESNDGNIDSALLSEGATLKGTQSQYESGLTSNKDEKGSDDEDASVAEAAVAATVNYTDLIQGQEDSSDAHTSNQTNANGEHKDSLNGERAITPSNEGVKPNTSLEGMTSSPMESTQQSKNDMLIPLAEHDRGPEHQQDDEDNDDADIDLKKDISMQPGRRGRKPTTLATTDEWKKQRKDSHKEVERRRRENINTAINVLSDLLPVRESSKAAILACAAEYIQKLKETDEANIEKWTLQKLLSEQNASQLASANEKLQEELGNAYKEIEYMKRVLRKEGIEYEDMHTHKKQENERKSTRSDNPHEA
Method: competition protein-binding microarray
Form: double-stranded DNA, one strand shown
Sample: in vitro
Tested at: 2 µM
Setting: whole 60-bp probe, lowest competitor level
Added: Pho4 competitor, 0.05 µM
Reading: higher = stronger binding
Constant ends, left off below: … GTCTTGATTCGCTTGACGCTGCTG
| Oligonucleotide | fluorescence intensity |
| --- | --- |
| CATACCCAACCTTGGGAAGTGGGTGAAGATATTTGT | 76.9 a.u. |
| CTTCTGTAAATTTGACGGGTGGGTGGACGCGCCCCG | 73.9 a.u. |
| ATCCCTTGCCCAAAGGGCGTGCAAACCGAGTCTAGC | 67.3 a.u. |
| TCGGTACGCGGCTCTAGCGTGCTTTTTGGAAGGGCA | 64.5 a.u. |
| TCGGGCTCCGTTTCGTCCGTGGGTACTCCAGCAGAT | 45.7 a.u. |
| AAATTACTAAGTTGACAAGTGGGTGACGCCGTATGA | 76 a.u. |
| TAGTGCCTCGGAGATACCGTGATGGAATGGGATCGG | 98 a.u. |
| TCGCCACCTCTGGTACCCGTGACGAAGCCAAGAAAT | 208 a.u. |
| AAATTACTAAGTTGTTACGTGGGTGACGCCGTATGA | 60.2 a.u. |
| GTAACCCAGTAACATCAGGTGCACCATCACTACAAA | 153 a.u. |
| AAAGCAGATGGGGATCGCGTGCTAACAAATTACTCG | 196 a.u. |
| AAGCCGCCAGGCGTTCTCGTGCGATAAAGTTGCAAA | 81.6 a.u. |
| AGACGAGGCAAAAGACACATGGTCGGCCCGTAACCA | 83.3 a.u. |
| TAGCTCCGCTTTATTCACGTGAAATGGGGTCGAAAT | 737 a.u. |
| CTTTCCCGATCTTAACACGTGTTTTTAGCACATTTG | 1830 a.u. |
| TGCAAGGGTTATGGGCATGCGCATCTATGTGGCGTT | 86.7 a.u. |
| CTTTCCCGATCTTTTCACGTGTTATTAGCACATTTG | 1070 a.u. |
| CTTTCCCGATCTTGCACGGTGGGTGTAGCACATTTG | 64.5 a.u. |
| TATCAAAAGTACCAACACGGGGAAAGAGAGCCATCC | 68.2 a.u. |
| CTTTGAAAAGCTGCCAACGTGACAAAACGTTCTGAT | 475 a.u. |
| CATACCCAACCTTGTGTGGTGGGTGAAGATATTTGT | 65.9 a.u. |
| CCACCACTCCAACAGAGCGTGTTGAAATTCAAAAAT | 87.8 a.u. |
| CTTCTGTAAATTTGTCACAACACTTGACGCGCCCCG | 100 a.u. |
| CGATATAGCACCGACCATGTGGGCAAATTCGTAATA | 103 a.u. |

Sample 4
Target: RNA binding protein fox-1 homolog 2, RRM domain, GST-SBP tag (RBFOX2, Homo sapiens, UniProt O43251-10, residues 100-194)
Method: RNA Bind-n-Seq
Form: RNA
Sample: in vitro
Tested at: 365 nM
Setting: natural RNA segment, single round, ends assumed
Relative to: no-protein control
Reading: higher = stronger binding
Constant ends, left off below: GGGAGUUCUACAGUCCGACGAUC … UGGAAUUCUCGGGUGCCAA
| Oligonucleotide | RBNS enrichment (R) |
| --- | --- |
| GGUGUAUGCUUUGUUCUUUCCAUCUCAAGCAUUUAUCCAAAUUCUGCUCACAGACAUGAGGAAGCAGGCUGUAGAUUUAAGGGCACUCAAGGGGAAAACAAAUGUAGUUU | 0.609 |
| UCUUACAGAAAAGUCCAUUUAAAAGUGAUCAUUUGUAAGACCAAAAUAUAAAUAAAAAGUUUCAAAAUCUAUCUGAAUUUGGAAUUCUUCUGGUUUGUUCUUUCAUGUUU | 0.643 |
| AUCCUUUGCCACCUUGAGAUGAUUUAUAGGUAAUAUAAUCUACAUUUGAGUUUAUUCAGACUUAAUUUAGUGCCCUACUUGUGUUAUAAUGGAAACUUAGAAGGUCAGAA | 0.428 |
| UCCAGCGUUUUUACUGUGAAUGUAAAUGGAACAGCAGCCCAAAGCUGUUGUCUGUGCCCCAGAGGUGCUACCUGUAGACAGGGACCAACUCCAUGUGUGUGUGUUAAGUG | 0.993 |
| GAUUCUUACAAGCAAAGGUCAUUGUGUUUUUUCUUGAGUAGAUACCUAAUAAAUUUUGCUUGAAAGUACCUUGGCUUCUCACUGGUGUUUAUGUAGACCUUGUCUUAUUC | 0.685 |
| CUGCUGCCCUAGAACUAGCGGUUAGAAGAAUCCGCUGUUCCUCCCUCAUCUCCUCUGCCUGUGUCUGCGACCCCCAUCCAUGUGCCAAAGUGUCCCUUGGGUCACACAGC | 0.783 |
| UCUGUAGAGUUCCCAGCCUCAGUAAUGUUCCAGGCUGCUUCUUGUUCCUUUUCUACCCUUUCUAGUUCAUUUUCCAAGGUAGCUGUGAUAAAGCAUGACAUAAAAGCCCA | 8.43 |
| GGUAGGUUGUCAGCAUGCUUGGCAUUCUUCUGUUUUCCUUACCGUUUUACAGACUAUGAAGCUGAGGGGGGAUGGUAGGCACAGAUGUGUGGCAACCCUGCUCUGUGCUC | 2.69 |
| UGGUGCUGUUUUUAUGAAAACCUCUGAUCCUUGGUGUCCUUUAAUUGAUCUGUUCAACAAAUAUUUACUAAACACUUCUAAGCUAACAUUAGGGCAGUGACUGAGGUGGA | 0.481 |
| GCCCACCAUUAACUCAUUCAUGUAGUUUAUUCAAGUGAUUUAUGUAUUUAAACUAAAUAUUGAAAAUGUUAGUCAAAUUGUGGUUUGCUUGUCAGGUAUUUAUAUCAGUC | 0.607 |
| UCGGGAAGCUGAGGCAGGUGAAUUGUUUGAACCUGGGAGGUGGAGGUUGCAGUGAGCAGAGAUCACACCACUGCACUCUAGCCUGGGUGACAGAGCAAGACUCUGUCUAA | 0.494 |
| UGGGAGGAUUGCUUGAGCGCAGGAGGCGGAGGUUGUAGAGCCAAGAUCACACCACUGCACUCCAGCCUGGGUGACAGAGCAAGACCCUGUCUCAAAAAAAAAAAAAAAAA | 0.742 |

Sample 5
Target: Sal-like protein 4, full length isoform A (SALL4, Homo sapiens, UniProt Q9UJQ4, residues 1-1053)
Chain of UniProt Q9UJQ4 (whole entry, looked up): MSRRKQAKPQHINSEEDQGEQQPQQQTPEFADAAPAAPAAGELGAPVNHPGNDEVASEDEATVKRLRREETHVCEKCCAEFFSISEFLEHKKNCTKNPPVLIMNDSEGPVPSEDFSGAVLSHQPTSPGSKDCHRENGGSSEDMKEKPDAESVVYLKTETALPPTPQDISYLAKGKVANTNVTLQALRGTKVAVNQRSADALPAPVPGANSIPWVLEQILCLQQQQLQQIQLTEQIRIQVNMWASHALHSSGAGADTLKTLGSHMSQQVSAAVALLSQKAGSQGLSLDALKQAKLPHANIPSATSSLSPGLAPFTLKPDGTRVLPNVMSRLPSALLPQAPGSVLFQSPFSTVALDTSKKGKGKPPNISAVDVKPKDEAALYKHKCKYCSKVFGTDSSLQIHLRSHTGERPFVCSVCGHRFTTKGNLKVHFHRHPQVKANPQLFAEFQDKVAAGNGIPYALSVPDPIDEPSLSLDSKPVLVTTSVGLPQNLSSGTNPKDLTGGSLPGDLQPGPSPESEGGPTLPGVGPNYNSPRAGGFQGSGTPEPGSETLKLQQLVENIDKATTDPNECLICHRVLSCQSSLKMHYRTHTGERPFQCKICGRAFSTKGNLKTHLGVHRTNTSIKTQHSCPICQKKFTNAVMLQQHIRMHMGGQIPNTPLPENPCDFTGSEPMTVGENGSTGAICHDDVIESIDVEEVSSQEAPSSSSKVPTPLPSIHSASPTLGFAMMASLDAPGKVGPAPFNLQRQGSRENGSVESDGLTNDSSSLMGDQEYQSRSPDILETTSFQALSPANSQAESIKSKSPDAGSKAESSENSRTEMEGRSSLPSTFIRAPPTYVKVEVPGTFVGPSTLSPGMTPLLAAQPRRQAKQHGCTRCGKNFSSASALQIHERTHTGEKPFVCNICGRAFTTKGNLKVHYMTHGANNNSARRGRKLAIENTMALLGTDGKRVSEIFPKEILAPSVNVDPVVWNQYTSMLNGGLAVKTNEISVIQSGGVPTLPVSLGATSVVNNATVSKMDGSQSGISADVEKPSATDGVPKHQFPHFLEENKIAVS
Method: universal PBM
Form: double-stranded DNA, one strand shown
Sample: in vitro
Tested at: 600 nM
Setting: 8-mer, flanks averaged, mean of replicates
Reading: higher = stronger binding
| Oligonucleotide | E-score |
| --- | --- |
| AATATGGT | 0.33 |
| AAAGAGTC | -0.152 |
| CTCCTGAA | -0.0361 |
| GTGCTATA | 0.297 |
| AGCGTCGC | -0.243 |
| CCCGAGGC | -0.329 |
| GATTTCCC | -0.115 |
| AACTCTCA | 0.12 |
| GTGATACA | 0.124 |
| CCCGAAAC | -0.105 |
| GTCATAAC | 0.253 |
| AAGAACGT | 0.143 |
| CCCCTAAC | -0.182 |
| TAGACTAA | 0.0612 |
| GTGAATTA | 0.312 |
| AATACACC | 0.179 |
| CTATGAAC | 0.142 |

A few entries again (sample 5):
| Oligonucleotide | E-score |
| --- | --- |
| GTGCTATA | 0.297 |
| AGCGTCGC | -0.243 |
| CCCGAGGC | -0.329 |
| GATTTCCC | -0.115 |
| AACTCTCA | 0.12 |
| GTGATACA | 0.124 |
| CCCGAAAC | -0.105 |
| GTCATAAC | 0.253 |
| AAGAACGT | 0.143 |
| CCCCTAAC | -0.182 |
| TAGACTAA | 0.0612 |
| GTGAATTA | 0.312 |
| AATACACC | 0.179 |
